# Measured values collected from several papers.
# Compare with care: the assays were run in different laboratories. ± marks the error that the study gave.
SMILES,assay,test system,conditions,scale,quantity,value
COc1cc(OC)cc(C2=C3C(C)=C(I)C(/C=C/c4c[nH]c5ccccc45)=[N+]3[B-](F)(F)n3c(/C=C/c4c[nH]c5ccccc45)c(I)c(C)c32)c1,,THF,,,Stokes shift,617 cm⁻¹
Cc1[nH]c(/C=C2\C(=O)Nc3ccc(F)cc32)c(C)c1NC(=O)CCN1CCN(C)CC1,,dog plasma,"80 ng/mL nominal, three freeze-thaw cycles at -20 °C",,measured concentration,75.5 ng/mL
CN(C(=O)c1ccn2ncc(-c3ccc(C(N)=O)cc3)c2c1)c1ccc(C#N)cn1,,"neonatal male Friesian-Holstein calf, plasma","oral, 5 mg/kg, days 1 and 7",,AUC,1.9 µM·h
Cc1ccc(C(=O)N[C@@H](CO)CC(C)C)cc1C,LC-MS,"Sprague-Dawley rat, both sexes, rat liver microsomes","10 µM of parent drug, 10 min, pH 7.4, with: NADPH",relative to: parent drug at time zero,metabolite peak area,2.5%
CC(C)c1cnc(-c2cc(Cl)ccc2F)cc1Nc1ccncc1C(=O)NC(CO)CO,refers to: Anemia,solid tumour patients,"oral, dose not given, phase I monotherapy",,treatment-related adverse events,19%
NC[C@@H](C(=O)Nc1ccc(-c2cn[nH]c2)cc1)c1ccccc1,OECD 405 eye irritation,"New Zealand White rabbit, eye","topical, 0.1%, 72 h (day 4), scale 0 to 2",direction not given,iris score,0
Cc1cc(C(=O)N[C@@H](CO)CC(C)C)ccc1CO,LC-MS,"Sprague-Dawley rat, both sexes, rat liver microsomes","10 µM of parent drug, 10 min, pH 7.4, with: NADPH",relative to: parent drug at time zero,metabolite peak area,0.8%
O=C(O)[C@@H]1C[C@@H](O)CN1C(=O)[C@@H]1CCCN1,potentiometric titration,,"37 °C, MA2 complex, with: Fe(III)",,log beta,24.2
COc1ccc(/C=C/c2ccc(-c3ccc(C)cn3)nc2)cc1,TCSPC,toluene,,,fluorescence lifetime,0.79 ns
CC(C)(O)c1ncc([S@](N)(=O)=NC(=O)Nc2c3c(cc4c2CCC4)CCC3)s1,,"healthy human volunteers, plasma","oral, 100 mg single dose, fasted, spray-dried dispersion",,dose-normalised AUC(0-t),985 ng·h/mL/mg
O=c1c(Cl)c(Cl)cnn1Cc1ccccc1,,liquid growth medium,,,precipitation onset concentration,50 to 100 µM
CC(=O)N[C@H](CC(=O)O)C(=O)N[C@H](Cc1c[nH]c2ccccc12)C(=O)N[C@H](Cc1ccccc1)C(=O)N[C@H](CCCCN)C(=O)N[C@H](C)C(=O)N[C@H](Cc1ccccc1)C(=O)N[C@H](Cc1ccc(O)cc1)C(=O)N[C@H](CC(=O)O)C(=O)N[C@H](CCCCN)C(=O)N[C@@H](C(=O)N[C@H](C)C(=O)N[C@H](CCC(=O)O)C(=O)N[C@H](CCCCN)C(=O)N[C@H](Cc1ccccc1)C(=O)N[C@H](CCCCN)C(=O)N[C@H](CCC(=O)O)C(=O)N[C@H](C)C(=O)N[C@H](Cc1ccccc1)C(N)=O)C(C)C,,"statin-treated high-risk CHD women, plasma","oral, 100 mg daily, day 13, 0 to 8 h, mean, undetectable set to 0",,AUC(0-t),11.6 ng·h/mL
COC(=O)c1ccc(-c2cn(Cc3cc(Cl)ccc3O[11CH3])nn2)cc1,PET/CT,"C57BL/6 mouse, lung",2 min,,peak uptake,1.39 %ID/cc
COCC1CN(C2CCN(c3cc(OC)c(Nc4ncc(Br)c(Nc5ccc6c(c5P(C)(C)=O)OCCO6)n4)cc3C)CC2)C1,,"human, plasma","oral, 10 to 240 mg, single dose first-in-human",,t1/2,24.3 to 34.5 h
O=C([O-])CN1CCN(CC(=O)[O-])CCN(CC(=O)NCC2CCC(C(=O)NC(Cc3ccc4ccccc4c3)C(=O)NCCCCC(NC(=O)NC(CCC(=O)O)C(=O)O)C(=O)O)CC2)CCN(CC(=O)[O-])CC1.[44Sc+3] (stereo not shown),transmetallation stability,,"4 h, 37 °C, with: Fe3+ 10 mM",,intact complex,96.7 ± 0.5%
"CNC(=O)N[C@]1(C)CCC[C@@]2(C)C3CC[C@@]4(C)C[C@]3(CCC21)CC4=O (single isomer, unassigned)",,processed rat plasma,"400 ng/mL, 24 h, 4 °C, autosampler stability",,measured concentration,445 ± 5.4 ng/mL
OCc1cn(Cc2ccc(-c3noc(-c4ccc(OCC[18F])c(C(F)(F)F)c4)n3)cc2)nn1,,"rat, blood","intravenous, 30 min",,tracer uptake,0.42 %ID/g
CCOC(=O)CN1CCN(CC(=O)OCC)CCN(Cc2cc(-c3nc4ccccc4s3)cc(OC)c2O)CC1,UV-Vis pH titration,,"25 °C, ionic strength 0.1 M NaCl",,pKa3,9.42
CCCCCCCC(=O)OC[C@H](NC(=O)[C@H](CO)NC(=O)CN)C(=O)N[C@@H](Cc1ccccc1)C(=O)N[C@@H](CC(C)C)C(=O)N[C@@H](CO)C(=O)N1CCC[C@H]1C(=O)N[C@@H](CCC(=O)O)C(=O)N[C@@H](Cc1cnc[nH]1)C(=O)N[C@@H](CCC(N)=O)C(=O)N[C@@H](CCCNC(=N)N)C(=O)N[C@H](C(=O)N[C@@H](CCC(N)=O)C(=O)N[C@@H](CCC(N)=O)C(=O)N[C@@H](CCCNC(=N)N)C(=O)N[C@@H](CCCCN)C(=O)N[C@@H](CCC(=O)O)C(=O)N[C@@H](CO)C(=O)N[C@@H](CCCCN)C(=O)N[C@@H](CCCCN)C(=O)N1CCC[C@H]1C(=O)N1CCC[C@H]1C(=O)N[C@@H](C)C(=O)N[C@@H](CCCCN)C(=O)N[C@@H](CC(C)C)C(=O)N[C@@H](CCC(N)=O)C(=O)N1CCC[C@H]1C(=O)N[C@@H](CCCNC(=N)N)C(=O)O)C(C)C,,chronic HFrEF patients,"intravenous infusion, 0.1 µg/kg/min, 30 min after infusion end, median",direction not given,hunger score,5
Cc1ccc(C(C)C)cc1.[C-]#[O+].[C-]#[O+].[C-]#[O+].[Cl-].[Cl-].[Cl-].[Re+].[Ru+2].c1cnc(-c2ncccn2)nc1,cyclic voltammetry,"0.1 M Na2SO4, gold electrode",scan rate 50 mV/s,,redox potential,-0.701 V vs Ag/AgCl
CCCCCC(O)C=CC1OC2OC(C1CC=CCCCC(=O)O)C2(F)F (stereo not shown),,50 mM HCl/KCl buffer with DMSO,"concentration not given, pH 1.25",,hydrolysis half-life,1.07 h
CC(O)c1nc(-c2ccc3c(c2)CCC3NC(=O)c2cnn(C)c2)no1 (stereo not shown),,"human, plasma","oral, 20 mg aficamten, median",,t1/2,95 h
O=C(CCc1ccc(CNC(C(=O)OC2CCCC2)C2CCCCC2)cn1)NO (stereo not shown),,"human, plasma","oral, 40 mg once daily, day 7, geometric mean",,AUC(0-t),229 ng·h/mL
CCCC[C@H](NC(=O)CNC(=O)CNC(=O)CN1CCN(CC(=O)O)CCN(CC(=O)O)CCN(CC(=O)O)CC1)C(=O)N[C@H]1Cc2cn(nn2)CCCC[C@@H](C(N)=O)NC(=O)[C@H](Cc2c[nH]c3ccccc23)NC(=O)[C@H](CCCNC(=N)N)NC(=O)[C@@H](Cc2ccccc2)NC(=O)[C@H](Cc2c[nH]cn2)NC1=O,,"SCID hairless mouse, female, urine and feces","intravenous, 7.5 MBq, 90 min, 68Ga labelled",,excretion,78.8 ± 8.6%
NS(=O)(=O)c1ccc(N2N=C(C(F)(F)F)CC2c2ccc(F)cc2F)cc1 (stereo not shown),,"male beagle dog, liver microsomes","20 µM, pH 7.4",,depletion rate,26.9 pmol/min/mg
O=c1nc(NO)ccn1[C@@H]1O[C@H](CO)[C@@H](O)[C@H]1O,"RT-PCR, refers to: CYP2B1","rat, arthritis model, liver","oral, 80 mg/kg twice daily, 5 days",relative to: untreated arthritic rats,mRNA level,0.4 fold
O=C(O)C1CN(Cc2ccc(-c3noc(-c4ccc(OCC[18F])c(C(F)(F)F)c4)n3)cc2)C1,,"rat, heart","intravenous, 2 h",,tracer uptake,0.316 %ID/g
COCCOCCOCCOCCOCCOCCOCCOCCC(=O)NCCCc1cc2cc3nc(cc4[nH]c(cc5nc(c(OC)c1[nH]2)C(=O)C5(C)C)cc4CCc1ccc(C(=O)O)cc1)CC3(C)C,,DMF,room temperature,,Qy absorption maximum,679 nm
CCCC[C@H](NC(=O)[C@H](CC(C)C)N(C)C(=O)CNC(=O)[C@@H](NC(=O)[C@H](Cc1ccccc1)NC(=O)[C@H](CCCCN)NC(=O)[C@@H](N)CC(=O)O)C(C)C)C(N)=O,,anesthetized Gottingen minipig,"subcutaneous, 1 µg/kg",relative to: baseline,heart rate,-1.68 ± 2.02%
Cc1c(NC(=O)c2ccc3c(c2)CC[C@@H]2C[C@@](O)(C(F)(F)F)CC[C@@]32Cc2ccccc2)ccc[n+]1[O-],"inducer, refers to: CYP3A4 mRNA",cryopreserved human hepatocytes,"concentration not given, 72 h, hepatocyte",relative to: rifampin 10 µM,Emax,53%
Cn1c(=O)c2c(nc(CN3CCN(C(=O)C4CC4)CC3)n2Cc2ccccc2F)n(C)c1=O,metabolic stability,"rat, liver microsomes",,,half-life,0.333 h
O=C(CCCCC[N+]#[C][99Tc-5]([C]#[N+]CCCCCC(=O)N[C@H]1C(O)O[C@H](CO)[C@@H](O)[C@@H]1O)([C]#[N+]CCCCCC(=O)N[C@H]1C(O)O[C@H](CO)[C@@H](O)[C@@H]1O)([C]#[N+]CCCCCC(=O)N[C@H]1C(O)O[C@H](CO)[C@@H](O)[C@@H]1O)([C]#[N+]CCCCCC(=O)N[C@H]1C(O)O[C@H](CO)[C@@H](O)[C@@H]1O)[C]#[N+]CCCCCC(=O)N[C@H]1C(O)O[C@H](CO)[C@@H](O)[C@@H]1O)N[C@H]1C(O)O[C@H](CO)[C@@H](O)[C@@H]1O (stereo partly shown),SPECT/CT,BALB/c nude mouse PANC-1 xenograft,2 h,relative to: tumour over non-tumour,tumour/non-tumour ratio,5.51 ± 0.79
Cn1c(=O)oc2ccc(-c3ccc(CC(C#N)NC(=O)C4CNCCCO4)c(F)c3)cc21 (stereo not shown),refers to: skin exfoliation,human,"15 mg, treatment-related, single dose, fasted",,subjects with adverse event,0%
C=CC(=O)Nc1cc(Nc2nccc(-c3cn(C4CC4)c4ccccc34)n2)c(OC)cc1N(C)CCNC,"radio-HPLC, co-eluting peaks pooled","human male, urine","oral, 110 mg, 0 to 96 h, sample holds 4.16% dose",relative to: sample radioactivity,share of radioactivity,28.8%
CC[C@H](C)[C@@H]1NC(=O)[C@H](Cc2ccccc2)NC(=O)[C@@H](NC(=O)[C@H](CCCNC(=N)N)NC(=O)[C@H](Cc2ccccc2)NC(=O)[C@H](Cc2ccccc2)NC(=O)[C@H](CCCCN)NC(=O)[C@H](CO)NC(=O)[C@H](CC(C)C)NC(=O)[C@H](CCCNC(=N)N)NC(=O)[C@H](CCSC)NC(=O)[C@H](C)N)CCCCNC(=O)NC[C@@H](C(=O)N[C@@H](CCCNC(=N)N)C(=O)N[C@@H](CCCCN)C(=O)N[C@@H](CCCCN)C(=O)O)NC(=O)[C@H](CC(C)C)NC1=O,circular dichroism,2.5 mM DPC,,,melting temperature,60.9 °C
CCOC(=O)CCC(=O)Oc1ccc(/C=C/C(=O)/C=C(O)/C=C/c2ccc(OC(=O)CCC(=O)OCC)c(OC)c2)cc1OC,,plasma,1.5 µM,relative to: human over dog,hydrolysis rate constant ratio,1.6
O=[11C](OC(C(F)(F)F)C(F)(F)F)N1CCC(CNS(=O)(=O)c2ccc(Cl)cc2)CC1,PET,"Sprague-Dawley rat, brain","intravenous, 2 min",,peak brain uptake,1.7 SUV
CC(C)[C@H](NC(=O)CNC(=O)[C@H](CCC(N)=O)NC(=O)[C@H](C)N)C(=O)O,,"human, both sexes, plasma","intravenous infusion, 45 mg/kg/h, 2 h infusion, geometric mean",,half-life,0.25 h
NC12CNCCNCC(NCc3ccc(CNC(=O)CCCC(=O)NCc4ccc(-c5nncnn5)cc4)cc3)(CNCCNC1)CNCCNC2.[64Cu+2],OLINDA dosimetry,pancreas,"48 h pretargeting interval, with: huA33-TCO pretargeting",,mean absorbed dose,0.0362 rad/mCi
CCC1=C(CC)C2=[N+]3C1=Cc1c(CC)c(CC)c4[n]1[Ir-3]31([C]#[N+]c3ccc(OC)cc3)([C]#[N+]c3ccc(OC)cc3)[n]3c(c(CC)c(CC)c3=CC3=[N+]1C(=C4)C(CC)=C3CC)=C2.F[B-](F)(F)F,,DMSO,concentration not given,,DMSO-substituted fraction,~8%
[11CH3]c1ccc2nc(C3CCC3)n(-c3ccc4[nH]ncc4c3)c2n1,,"human female, spleen",,,absorbed radiation dose,2.6 µSv/MBq
CCCC[C@H](NC(=O)CNC(=O)CNC(=O)CN1CCN(CC(=O)O)CCN(CC(=O)O)CC1)C(=O)N[C@H]1CC(=O)NCCCC[C@@H](C(N)=O)NC(=O)[C@H](Cc2c[nH]c3ccccc23)NC(=O)[C@H](CCCNC(=N)N)NC(=O)[C@@H](Cc2ccccc2)NC(=O)[C@H](Cc2c[nH]cn2)NC1=O [copper-64 labelled],,"female C57 mouse, B16/F1 melanoma","intravenous, 0.037 MBq, 2 h",relative to: tumour over blood,uptake ratio,37.5
COC(=O)C(c1ccccc1Cl)N1CCC(SCC(=O)c2cccc(OC)c2)C(=CC(=O)O)C1 (stereo not shown),LC-MS/MS,human plasma,"2 ng/mL, after freeze-thaw cycles",,measured concentration,1.9 ± 0.2 ng/mL

# Excerpt of the above:
SMILES,assay,test system,conditions,scale,quantity,value
Cn1c(=O)oc2ccc(-c3ccc(CC(C#N)NC(=O)C4CNCCCO4)c(F)c3)cc21 (stereo not shown),refers to: skin exfoliation,human,"15 mg, treatment-related, single dose, fasted",,subjects with adverse event,0%
COCCOCCOCCOCCOCCOCCOCCOCCC(=O)NCCCc1cc2cc3nc(cc4[nH]c(cc5nc(c(OC)c1[nH]2)C(=O)C5(C)C)cc4CCc1ccc(C(=O)O)cc1)CC3(C)C,,DMF,room temperature,,Qy absorption maximum,679 nm
CCC1=C(CC)C2=[N+]3C1=Cc1c(CC)c(CC)c4[n]1[Ir-3]31([C]#[N+]c3ccc(OC)cc3)([C]#[N+]c3ccc(OC)cc3)[n]3c(c(CC)c(CC)c3=CC3=[N+]1C(=C4)C(CC)=C3CC)=C2.F[B-](F)(F)F,,DMSO,concentration not given,,DMSO-substituted fraction,~8%
CCCC[C@H](NC(=O)[C@H](CC(C)C)N(C)C(=O)CNC(=O)[C@@H](NC(=O)[C@H](Cc1ccccc1)NC(=O)[C@H](CCCCN)NC(=O)[C@@H](N)CC(=O)O)C(C)C)C(N)=O,,anesthetized Gottingen minipig,"subcutaneous, 1 µg/kg",relative to: baseline,heart rate,-1.68 ± 2.02%
COC(=O)C(c1ccccc1Cl)N1CCC(SCC(=O)c2cccc(OC)c2)C(=CC(=O)O)C1 (stereo not shown),LC-MS/MS,human plasma,"2 ng/mL, after freeze-thaw cycles",,measured concentration,1.9 ± 0.2 ng/mL
CCCCCC(O)C=CC1OC2OC(C1CC=CCCCC(=O)O)C2(F)F (stereo not shown),,50 mM HCl/KCl buffer with DMSO,"concentration not given, pH 1.25",,hydrolysis half-life,1.07 h
